Results of several laboratories.
Protocols differ between the studies behind these lines. Numbers after ± are the reported error.

SMILES | tested on | assay | setting | measurement | value
Clc1ccc(COc2cncc(-c3cnn(C4CCNCC4)c3)c2)c(Cl)c1 | HMC3 | nuclear intensity, high-content imaging | geometric mean | IC50 | 9.84 µM
CCc1nc(C(N)=O)c(Nc2ccc(N3CCC(N4CCN(C(=O)CNc5ccc(S(=O)(=O)NC(=O)c6ccc(N7CCN(CC8=C(c9ccc(Cl)cc9)CC(C)(C)CC8)CC7)cc6Oc6cnc7[nH]ccc7c6)cc5[N+](=O)[O-])CC4)CC3)c(OC)c2)nc1NC1CCOCC1 | MOLM-14 FLT3-ITD F691L gilteritinib-resistant | cell viability, alamarBlue | 48 h | IC50 | > 10 µM
Nc1ccccc1NC(=O)c1ccc(CNc2nccc(-c3cccnc3)n2)cc1 | HD-MB03 | cell growth | 168 h, single agent | IC50 | 0.138 µM
Cc1cc(Nc2ncc(Cl)c(Nc3ccccc3S(=O)(=O)C(C)C)n2)c(OC(C)C)cc1C1CCNCC1 | NCI-H3122 (EML4-ALK variant 1) | cell viability | – | IC50 | 0.0353 µM
Cc1c(C(=O)O)ccc2c3n(nc12)[C@@H]1[C@H](C3)N(CC2CC2)[C@@]2(C(=O)Nc3cc(Cl)ccc32)[C@H]1c1cccc(Cl)c1F | UACC-812 | cell growth, alamarBlue | unbound, 4.5% of total | IC50 | 0.0108 µM
O=C(O)COCC(=O)O | hepatocytes, iPSC-derived, W2 line | cell viability, RealTime-Glo MT | 48 h, differentiation day 23 | IC50 | 8420 µM
C[C@H](CS)C(=O)N1CCC[C@H]1C(=O)O | Nedd8-cullin1 interaction | neddylation, AlphaScreen | 100 µM | inhibition | 1.7%
CC1(C)CCC(c2ccc(Cl)cc2)=C(CN2CCN(c3ccc(C(=O)NS(=O)(=O)c4ccc(N[C@H](CCN5CCOCC5)CSc5ccccc5)c(S(=O)(=O)C(F)(F)F)c4)cc3)CC2)C1 | HD-MB03 | cell growth | 168 h, single agent | IC50 | 0.0381 µM
CN(c1ccc(NC(=O)c2cccc(C(=N)N)c2)cc1OCc1ccc(C(F)(F)F)cc1)S(=O)(=O)Cc1ccccc1 | RAW264.7 | cell growth, MTT | 48 h | IC50 | > 500 µM
CCCCN1C[C@H](O)[C@@H](O)[C@@H](O)[C@H]1CO | sample E patient fibroblasts | Gb3 level lowering, LC-MS/MS, item: Gb3 d18:1/22:0 | 216 h | IC50 | 52.8 µM
O=C(Oc1ccc2[nH]c3ccccc3c2c1)c1ccc(O)cc1 | rat vascular smooth muscle cells | cell proliferation, MTT | added: PDGF-BB | IC50 | 4.76 µM
CCn1ncc2c1-c1cnc(N)c(c1)O[C@H](C)c1cc(F)ccc1-c1nn(C)nc1C2 | A-431, EGFR-amplified | cell viability | – | IC50 | > 10 µM
CC1(C)COc2ccc(F)cc2CN2c3nc4c(cnn4cc3OC[C@H]2C(F)F)C(=O)N1 | NCI-H3122 (EML4-ALK variant 1) | cell viability | – | IC50 | 0.128 µM
O=C(c1c(F)ccc(NS(=O)(=O)N2CC[C@@H](F)C2)c1F)c1c[nH]c2ncc(-c3cnc(C4CC4)nc3)cc12 | SK-MEL-2 (NRAS Q61R) | ERK phosphorylation, Western blot | 1 h | IC50 | > 30 µM
Nc1ccn([C@@H]2O[C@H](CO)[C@@H](O)C2(F)F)c(=O)n1 | HD-MB03 | cell growth | 168 h, DMSO | IC50 | 0.0278 µM
CCCCc1nc(C)c(CC(=S)N(C)C)c(=O)n1Cc1ccc(-c2ccccc2-c2nnn[nH]2)cc1 | human skeletal muscle cells | BCKD phosphorylation, AlphaLISA | – | IC50 | > 60 µM
Cc1[nH]c(/C=C2\C(=O)Nc3ccc(S(=O)(=O)N(C)c4cccc(Cl)c4)cc32)c(C)c1C(=O)N1CCN(C)CC1 | Rh3 (alveolar rhabdomyosarcoma) | cell growth | 3 days | IC50 | 2.72 ± 0.49 µM
CCN(CCO)CCCC(C)Nc1ccnc2cc(Cl)ccc12 (stereo not drawn) | human PBMC | IFN-driven gene expression, inhibitor, qRT-PCR, item: IFI6 mRNA | two donors, added: ssRNA | IC50 | 2.3 ± 0.9 µM
COc1cccc2c1C(=O)c1c(O)c3c(c(O)c1C2=O)C[C@@](O)(C(=O)CO)C[C@@H]3O[C@H]1C[C@H](N)[C@H](O)[C@H](C)O1 | HD-MB03 | cell growth | 168 h, single agent | IC50 | 0.134 µM
C[C@H]1Oc2cc(cnc2N)-c2c(nn(C)c2C#N)CN(C)C(=O)c2ccc(F)cc21 | NCI-H2228, EML4-ALK v3 | – | – | IC50 | < 0.001 µM
CC1(C)CN=C(N2CCN(c3ncnc4sc(CC(F)(F)F)cc34)CC2)S1 | HD-MB03 | cell growth | single agent | IC50 | 0.126 µM
CC(=O)C1=C(C)Nc2sc(C(=O)c3ccc(Cl)c(Cl)c3)c(N)c2C1c1cccnc1 (stereo not drawn) | HMC3 | nuclear intensity, high-content imaging | geometric mean | IC50 | 35.5 µM
CCC(=O)N1CCN(c2ccc(-n3c(=O)ccc4cnc5ccc(-c6cnc7ccccc7c6)cc5c43)cc2C(F)(F)F)CC1 | HD-MB03 | cell growth | 168 h, DMSO | IC50 | 0.0489 µM

SMILES | tested on | assay | setting | measurement | value
CN(c1ccc(NC(=O)c2ccc(C(=N)N)cc2)cc1OCc1ccc(C(F)(F)F)cc1)S(=O)(=O)Cc1ccccc1 | RAW264.7 | cell growth, MTT | 48 h | IC50 | > 500 µM
COc1cccc2c1C(=O)c1c(O)c3c(c(O)c1C2=O)C[C@@](O)(C(=O)CO)C[C@@H]3O[C@H]1C[C@H](N)[C@H](O)[C@H](C)O1 | HeLa untransduced | cell viability | 48 h | IC50 | 0.147 ± 0.023 µM
COc1ccc(F)cc1C(=O)NCc1ccc(-c2nn([C@@H](C)C(F)(F)F)c(N)c2C(N)=O)cc1 | TMD8 BTK C481S | cell proliferation | 72 h | IC50 | 0.0264 µM
CCCCc1nc(Cl)c(CO)n1Cc1ccc(-c2ccccc2-c2nn[nH]n2)cc1 | human skeletal muscle cells | BCKD phosphorylation, AlphaLISA | – | IC50 | > 60 µM
Cc1c(C)c2c(c(C)c1O)CCC(C)(COc1ccc(CC3SC(=O)NC3=O)cc1)O2 (stereo not drawn) | THLE-2 cells, Ad-Null transduced | cell viability | no enzyme control | IC50 | 87 ± 12 µM
CCOc1nc2cccc(C(=O)O)c2n1Cc1ccc(-c2ccccc2-c2nnn[nH]2)cc1 | human skeletal muscle cells | BCKD phosphorylation, AlphaLISA | – | IC50 | > 60 µM
COc1cccc(OCCCN)c1-c1cc(Nc2cnc(C#N)cn2)n[nH]1 | HD-MB03 | cell growth | 168 h, single agent | IC50 | 0.0304 µM
COc1cc(N2CCC(N3CCN(C)CC3)CC2)ccc1Nc1ncc(Cl)c(Nc2ccccc2S(=O)(=O)C(C)C)n1 | Rh3 (alveolar rhabdomyosarcoma) | cell growth | 3 days | IC50 | 0.17 ± 0.05 µM
CC1=Nc2ccc(Cl)cc2S(=O)(=O)N1 | Nedd8-cullin1 interaction | neddylation, AlphaScreen | 100 µM | inhibition | -9.9%
CN1CCN(CCCN2c3ccccc3Sc3ccc(C(F)(F)F)cc32)CC1 | THLE-2 cells, Ad-Null transduced | cell viability | no enzyme control | IC50 | 72 ± 28 µM
COc1ccc(C(=O)Nc2ccc(NC(=N)N)c(OCc3cc(C)ccc3C)c2)cc1 | RAW264.7 | cell growth, MTT | 48 h | IC50 | > 500 µM
COc1cc2c(Oc3ccc(NC(=O)C4(C(=O)Nc5ccc(F)cc5)CC4)cc3F)ccnc2cc1OCCCN1CCOCC1 | Rh3 (alveolar rhabdomyosarcoma) | cell growth | 3 days | IC50 | 0.49 ± 0.2 µM
CN(c1ccc(NC(=O)c2ccc(C(=N)N)cc2)cc1OCc1ccc(C(F)(F)F)cc1)S(=O)(=O)C(F)(F)F | RAW264.7 | cell growth, MTT | 48 h | IC50 | > 500 µM
CC(=O)c1c(O)c(C)c(O)c2c1OC1=CC(=O)C(C(C)=O)C(=O)C12C (single isomer, unassigned; (+)) | hepatocytes, iPSC-derived, W2 line | cell viability | 72 h | IC50 | 25 µM
Cc1nc(NC(=O)N2CCC[C@H]2C(N)=O)sc1-c1ccnc(C(C)(C)C(F)(F)F)c1 | NCI-H1048 | growth rate inhibition, CellTiter-Glo | 120 h | IC50 | 1.23 µM
Cc1cc2c(F)c(Oc3ncnn4cc(OC[C@@H](C)O)c(C)c34)ccc2[nH]1 | HD-MB03 | – | 168 h | IC50 | inactive
NC(=O)NO | mouse MDSCs differentiated in vitro | suppressive neutrophil frequency, flow cytometry | – | IC50 | 18 ± 1.9 µM
CNc1ncc2cc(-c3cc(NC(=O)NCCC(C)(C)C)c(F)cc3C)c(C)nc2n1 | SK-MEL-2 (NRAS Q61R) | ERK phosphorylation, Western blot | 1 h | IC50 | 1.22 µM
C=C1C[C@](OC)([C@H](OCOC/C=C/B2OC(CC)(CC)C(CC)(CC)O2)C(=O)NC[C@@H]2C[C@@H](OC)C(C)(C)[C@@H](C[C@@H](COC)OC)O2)O[C@H](C)[C@@H]1C | RAW264.7 | cell viability, sulforhodamine B | 48 h, 37 °C, added: 100 µM H2O2 | IC50 | 0.0101 ± 0.0002 µM
Cc1c(C)c2c(c(C)c1O)CCC(C)(COc1ccc(CC3SC(=O)NC3=O)cc1)O2 (stereo not drawn) | iPSC-derived hepatocytes B3 | cell viability | 48 h, differentiation day 23 | IC50 | 46 µM
C=C(F)C(=O)N1CCN(c2nc(OC[C@@H]3CCCN3C)nc3c2CCN(c2cccc4cccc(Cl)c24)C3)C[C@@H]1CC#N | BXPC-3 | cell viability, 3D CellTiter-Glo | – | IC50 | > 1 µM
C[C@H](Nc1ccc2c(c1)OCCn1cc(N3C(=O)OC[C@H]3C(F)F)nc1-2)C(N)=O | NCI-H596 | growth rate inhibition, CellTiter-Glo | 120 h | IC50 | 0.0486 µM

Some of these lines once more:
SMILES | tested on | assay | setting | measurement | value
CCCCc1nc(Cl)c(CO)n1Cc1ccc(-c2ccccc2-c2nn[nH]n2)cc1 | human skeletal muscle cells | BCKD phosphorylation, AlphaLISA | – | IC50 | > 60 µM
Cc1c(C)c2c(c(C)c1O)CCC(C)(COc1ccc(CC3SC(=O)NC3=O)cc1)O2 (stereo not drawn) | THLE-2 cells, Ad-Null transduced | cell viability | no enzyme control | IC50 | 87 ± 12 µM
CCOc1nc2cccc(C(=O)O)c2n1Cc1ccc(-c2ccccc2-c2nnn[nH]2)cc1 | human skeletal muscle cells | BCKD phosphorylation, AlphaLISA | – | IC50 | > 60 µM
